Measurements pooled from the literature.
Numbered parts are unrelated; each lists some results of a single study. Substitutions count along the parent as printed.

Set 1
Target: CCNE1, cyclin fold, Cln2 fusion (human)
Technique: yeast growth competition, sequencing
Sample: yeast
Setting: weak parent motif
Reference: not given
Reading: higher = stronger binding
Starting sequence: RB1 docking peptide (human); PKPLKKLRFDIEG
Change	normalised enrichment score
K5Y	0.911
R8G	0.116
K6W	0.32
P3K	-0.3

Set 2
Target: XBP1, bZIP domain (human)
Technique: DHFR protein complementation
Sample: yeast
Setting: single substitutions, most at no-binding floor
Reference: wild-type JUN-FOS pair
Reading: higher = stronger binding
Starting sequence: JUN, bZIP domain (human); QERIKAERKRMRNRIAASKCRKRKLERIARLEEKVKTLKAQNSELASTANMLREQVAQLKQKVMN; partner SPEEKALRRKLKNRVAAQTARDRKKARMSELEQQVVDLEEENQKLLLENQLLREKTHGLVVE
Change	binding fitness [natural log]
S47K	-0.354
T37D	-0.663
M51I	-0.693

Set 3
Target: Histone acetyltransferase KAT6A, winged helix 1, GST fusion (KAT6A, Homo sapiens, UniProt Q92794, residues 1-85)
Technique: protein binding microarray
Form: double-stranded DNA, one strand shown
Sample: in vitro
Tested at: not given
Setting: 8-mer, flanks averaged, mean of 2 arrays, mostly near background
Reference: not given
Reading: higher = stronger binding
Construct (chain): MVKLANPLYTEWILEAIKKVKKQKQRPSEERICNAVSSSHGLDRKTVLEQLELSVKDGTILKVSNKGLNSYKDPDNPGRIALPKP
Strand	E-score
ACTTCCCC	-0.134
CAGCGGCC	0.371
GTTATCCA	-0.194
CCATCTCA	-0.183
GCTAGCCA	-0.0602
CGCCGCGA	0.432
AGAATAAA	-0.24

Further values, each from its own experiment
Molecule	target	assay	system	setting	scale	endpoint	value
PhoQ, residues 284 288 289 292 302 303 QWGLFV	PhoP, residues 12 14 15 18 19 SEGLL (Escherichia coli, UniProt P23836)	Sort-seq, item: YFP reporter	E. coli	PhoQ-PhoP variant library, added: 10 µM Mg2+	reference: high Mg2+ state, higher = stronger signaling	fold induction	13.8

Repeated from above (set 1):
Change	normalised enrichment score
P3K	-0.3
K6W	0.32
